Measured values pooled from the literature.
Lines come from different studies, so protocols differ. Numbers after ± are the reported error.
Cell line: HepG2

Compound	test	setting	scale	quantity	value
CC(=O)NC(C)(C)C(=O)N[C@@H](C)C(=O)NC(C)(C)C(=O)N[C@@H](C)C(=O)NC(C)(C)C(=O)N[C@@H](C)C(=O)N[C@@H](CCC(N)=O)C(=O)NC(C)(C)C(=O)N[C@@H](CC(C)C)C(=O)NC(C)(C)C(=O)NCC(=O)N[C@@H](CC(C)C)C(=O)NC(C)(C)C(=O)N1CCC[C@H]1C(=O)N[C@H](C(=O)NC(C)(C)C(=O)NC(C)(C)C(=O)N[C@@H](CCC(N)=O)C(=O)N[C@@H](CCC(N)=O)C(=O)N[C@H](CO)Cc1ccccc1)C(C)C	cytotoxicity, MTS	48 h	–	EC50	5.77 ± 0.53 µM
CC(N)Cc1c[nH]c2ccc(OCc3cccs3)cc12 (stereo not drawn)	cell viability, ATP content	24 h	–	IC50	45.7 ± 14.6 µM
Oc1c(Cl)cc(Cl)c(Cl)c1Cc1c(O)c(Cl)cc(Cl)c1Cl	Seahorse respirometry	concentration not given, 1 h, dosed at MMP IC50, together with: 1 µM FCCP	relative to: basal	OCR	171 ± 2.44%
CC[C@H](C)[C@H](NC(=O)[C@H](C)NC(=O)[C@@H]1CCCN1C(=O)C(C)(C)NC(=O)[C@H](CC(C)C)NC(=O)[C@H](CCC(N)=O)NC(=O)C(C)(C)NC(C)=O)C(=O)NC(C)(C)C(=O)N1CCC[C@H]1C(=O)N[C@](C)(CC)C(=O)N[C@@H](CC(C)C)C(=O)NC(C)(C)C(=O)N1CCC[C@H]1C(=O)N[C@H](CO)CC(C)C	cytotoxicity, MTS	48 h	–	EC50	> 25 µM
COc1cc(/C=C/C(O)=C/C(=O)/C=C/c2ccc(O)cc2)ccc1O	cell growth or viability, MTT	48 h	–	IC50	18.1 µg/mL
CCCCCCCCCc1ccc(O)cc1	–	MMP IC50, 1 h, together with: FCCP 1 µM	relative to: basal OCR	maximal OCR	212.6 ± 1.39%
CC(C)[C@H]1c2ccc(F)cc2CC[C@@]1(CCN(C)CCCc1nc2ccccc2[nH]1)OC(=O)C1CC1	phospholipidosis induction, inducer, high-content imaging	24 h, primary screen	–	EC50	5 µM
CC(C)(c1ccccc1)c1ccc(O)cc1	Seahorse respirometry	concentration not given, 1 h, dosed at MMP IC50, together with: 1 µM FCCP	relative to: basal	OCR	150.3 ± 1.35%
COc1ccc2c(c1)c(CCN1CCOCC1)c(C)n2C(=O)c1cccc(Cl)c1Cl	cell viability, ATP content	24 h	–	IC50	66.6 ± 31.3 µM
Oc1ccc(/C=C/c2cc(O)cc(O)c2)cc1	Seahorse respirometry	concentration not given, 1 h, dosed at MMP IC50, together with: 1 µM FCCP	relative to: basal	OCR	181.1 ± 1.52%
N.N.[Cl][Pt][Cl]	cell growth or viability, MTT	48 h	–	IC50	9.66 µM
c1cc(-c2cnn3cc(-c4ccc(N5CCNCC5)cc4)cnc23)c2cccnc2c1	hepcidin mRNA expression, inhibitor, quantitative RT-PCR, refers to: hepcidin mRNA	90 min, together with: IL-6 100 ng/mL	–	IC50	~0.125 µM
CN(C)c1ccc(C(=C2C=CC(=[N+](C)C)C=C2)c2ccccc2)cc1.CN(C)c1ccc(C(=C2C=CC(=[N+](C)C)C=C2)c2ccccc2)cc1.O=C(O)C(=O)O.O=C([O-])C(=O)O.O=C([O-])C(=O)O	–	MMP IC50, 1 h, together with: FCCP 1 µM	relative to: basal OCR	maximal OCR	35.4 ± 0.72%
CC(=O)NC(C)(C)C(=O)N[C@@H](C)C(=O)NC(C)(C)C(=O)N[C@@H](C)C(=O)NC(C)(C)C(=O)N[C@@H](C)C(=O)N[C@@H](CCC(N)=O)C(=O)NC(C)(C)C(=O)N[C@H](C(=O)NC(C)(C)C(=O)NCC(=O)N[C@@H](CC(C)C)C(=O)NC(C)(C)C(=O)N1CCC[C@H]1C(=O)N[C@H](C(=O)NC(C)(C)C(=O)NC(C)(C)C(=O)N[C@@H](CCC(N)=O)C(=O)N[C@@H](CCC(N)=O)C(=O)N[C@H](CO)Cc1ccccc1)C(C)C)C(C)C	cytotoxicity, MTS	48 h	–	EC50	9.28 ± 0.84 µM
CN1CCN(C2Cc3ccccc3Sc3ccc(Cl)cc32)CC1 (stereo not drawn)	phospholipidosis induction, inducer, high-content imaging	24 h, primary screen	–	EC50	3.2 µM
